Results gathered from unrelated publications.
Every numbered part comes from another study and shows a few of its results, in no order. Substitutions count along the parent as printed.

Series 1 — target: CCNE1, cyclin fold, Cln2 fusion (human); technique: yeast growth competition, sequencing; sample: yeast; setting: strong parent motif; relative to: not given; reading: higher = stronger binding; quantity: normalised enrichment score
Starting sequence: E2F2 docking peptide (human); LPAKRKLDLEGIG; partner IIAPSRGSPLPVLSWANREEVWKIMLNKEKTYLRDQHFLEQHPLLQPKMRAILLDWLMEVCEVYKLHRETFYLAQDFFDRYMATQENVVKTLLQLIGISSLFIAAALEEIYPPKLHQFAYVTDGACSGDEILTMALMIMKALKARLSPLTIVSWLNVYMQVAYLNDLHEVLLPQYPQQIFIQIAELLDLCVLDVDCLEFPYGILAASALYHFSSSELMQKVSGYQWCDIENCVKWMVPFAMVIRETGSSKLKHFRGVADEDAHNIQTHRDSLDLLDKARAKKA
LPAKKKLDFEGIG [R5K L9F]: 3.37
LPAKRKLALEGIG [D8A]: -0.305
LPAKAKLDLEGIG [R5A]: 0.611
LPAKKKLDLEGIG [R5K]: 0.594
LPAKAKADLEGIG [R5A L7A]: 0.0822
LPAKRKLDLEGAG [I12A]: 1.27
LPAKRKLDLEAIG [G11A]: 0.0693
LPAKRKLDLEGIA [G13A]: 1.21
LPAKRKLDLAGIG [E10A]: 0.705

Series 2 — technique: RNA Bind-n-Seq; molecule type: RNA; sample: in vitro; tested at: 20 nM; setting: 6-mer, flanks averaged, single round; added: 150 mM KCl; relative to: input library; reading: higher = stronger binding; quantity: 6-mer enrichment (R)
Target: TAR DNA-binding protein 43, full length, His tag (TARDBP, Homo sapiens, UniProt Q13148, residues 1-414)
GUUUAC: 0.62
UUUAGC: 0.625
UGCUGG: 1.43
GCGACU: 0.872
CUACAG: 0.665
AACAUC: 0.582
GACUCA: 0.669
GUUACG: 0.871
GAGCAA: 0.93
AUGUAG: 0.914
UAAUUU: 0.664
AGGGCG: 4.73
CAGCAC: 0.713
UACCCG: 0.649
GGACCG: 1.8
AUAGGU: 0.797

Series 3 — technique: RNA Bind-n-Seq; molecule type: RNA; sample: in vitro; tested at: not given; setting: RNA with constant flanks, ends assumed; relative to: input RNA pool; reading: higher = stronger binding; quantity: bound/input enrichment
Target: RING finger protein unkempt homolog, zinc fingers 1-6, GST-SBP tag (UNK, Homo sapiens, UniProt Q9C0B0, residues 30-357)
Shared flanks, not repeated: GGGAGUUCUACAGUCCGACGAUC … CAACAGAGGAUUGAGCAUCA
Construct (chain): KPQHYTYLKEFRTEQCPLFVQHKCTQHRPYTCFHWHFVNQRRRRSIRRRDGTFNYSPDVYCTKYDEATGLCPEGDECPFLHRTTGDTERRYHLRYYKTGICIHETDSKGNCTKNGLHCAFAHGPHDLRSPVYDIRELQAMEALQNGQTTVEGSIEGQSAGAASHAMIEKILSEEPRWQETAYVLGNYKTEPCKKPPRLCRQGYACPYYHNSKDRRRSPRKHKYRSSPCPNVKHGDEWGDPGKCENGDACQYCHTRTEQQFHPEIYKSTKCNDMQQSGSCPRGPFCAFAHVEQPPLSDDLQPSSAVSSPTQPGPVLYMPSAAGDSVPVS
CUAUCACUAUGGCAAAAACAUAAAUAUUAUCUCAUUUCAGUGUGUGGAGUUGUGGUUGCCGUGUUUGCCUGGUACAUCACCCAUGAUGUCAAUUAAAAAAAGUUUUGAUCUUUUAAUGUA: 0.277 ratio
CCAACACUUUGCUCCCUGGCAACCCCUAAUAUUUGGGAUCUCUCAAUGCUAUUUGCCUUCAUCCGCUUGCUCGUUAUGCUUCCCACUUGGUGGAUUGUGUCUUCCUGGCUGGUAUGGGGA: 0.149 ratio
UGCAUUCUACGGCUGUUGGCCCAUUCAUGUCCUCUUGAUGUAUAUGCUGCUUGCCAGAGGUCCGCUUUCUGCAUACUUCAGCCCAUAAUAAUGAAAUCAGCAGUACUCACAUAUUUUGGG: 0.157 ratio
AUUUGGUCAAGGCCUGAAAGCACCCAGGUGCAGAAUAUCUUGCGCCAGAGAACAGAAAACACCGAUAUAAAAAAAUACUGUGUACAUUAUCUUGAGGAUGUAGGUUCUUUUGAAUACACU: 0.14 ratio
AGGUUAACUCUGAGAGCCAUCAAACUGUGGGCCAAACGGCACAACAUCUAUUCCAAUAUAUCCGGUUUCCUCGGUGGUGUUUCCUGGGCUAUGCUAGUAGCAAGAACUUGCCAGCUUUAU: 0.184 ratio
GCUCUAGUUCUUAACAACCGACACUCCUACAAGAUUUAGAAAAAAGUUUACAACAUAAUCCCGUUUACAGAAAAAUCUUGUGCUAGAAUACUUUUUAAAAGGUAUUUUGAAUACCAUUAA: 8.57 ratio
AUGCCAAGUGUUUCUAAGCUUUAUUCUGAGAACUGACUUUCAACCUUCAGGUAUGCAUUUACCGAAUUUGCUUCAUUUGAAGAUGCUAAAGAAGCUUUAAAUUCCUGUAAUAAAAUGGAA: 0.0406 ratio
AUUUUAUUGGUGCCUUCUUUCAUCAUGCCUUUUAAAUCAAAGGGAUAUUGGUACAUGCUUUCCGAAGAAUUGUGUCAGUAUUACCGAAUUUUUGUUCCUAUACCAGUUUGGUUUCGGUAC: 0.307 ratio
AGGAGCGCGCCAUGGCGGUGUCCGAGAGUCAGCUGAAGAAGAUGAUGUCCAAGUACAAAUACCGAGAUCUAACCGUCCGUCAAACUGUCAAUGUCAUCGCUAUGUACAAAGAUCUCAAAC: 0.0646 ratio
AGCUUACUGUAUUAGUCAUUUUUAGCCCAUAAUUAAAACAUGAUCACUUUUACACAGGUGCCGUAUGGUGCAUUUCAUUCCUUAUUUAUAAAUUAACUGAAAUUACAGUUUGCUAUAAUA: 5.42 ratio
CCAAUCGGACUGCACAAGAAGCGGAUUGAACUGUCUGUUCUUUCAUACCAUUCCUCCUUCCGCAUCAGAAAGAGCCGGUUGGUUCAUGGGUACAUUGUUUUUUAUUCAGCCAAACGUAAG: 0.374 ratio

Series 4 — target: DBP, bZIP domain (human); technique: DHFR protein complementation; sample: yeast; relative to: wild-type JUN-FOS pair; reading: higher = stronger binding; quantity: binding fitness
Setting: single substitutions, most at no-binding floor
Starting sequence: JUN, bZIP domain (human); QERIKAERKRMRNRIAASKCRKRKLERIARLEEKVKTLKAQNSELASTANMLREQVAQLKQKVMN; partner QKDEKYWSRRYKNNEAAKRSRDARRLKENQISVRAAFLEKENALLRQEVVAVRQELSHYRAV
T37Y: -1.31 natural log
L52I: -1.28 natural log
A57V: -1.54 natural log
A46P: -1.51 natural log
L31Y: -1.54 natural log
I28W: -1.41 natural log
Q55L: -1.37 natural log
N42G: -1.48 natural log
N42I: -1.48 natural log
R53W: -1.57 natural log
R30A: -1.47 natural log
R30Q: -1.44 natural log
E32L: -1.39 natural log
V35Q: -1.52 natural log
L52V: -1.51 natural log
V56S: -1.44 natural log
L31R: -1.51 natural log
T37A: -1.36 natural log
S47E: -1.54 natural log
L45S: -1.5 natural log
S47H: -1.52 natural log

Series 5 — technique: universal PBM; molecule type: double-stranded DNA, one strand shown; sample: in vitro; tested at: not given; reading: higher = stronger binding; quantity: E-score
Target: Sal-like protein 4, full length isoform B (SALL4, Homo sapiens, UniProt Q9UJQ4-2, residues 1-616)
Setting: 8-mer, flanks averaged, mean of replicates
GTATCAAA: 0.229
ACACGTAT: 0.134
AAGGACAA: 0.0523
GAACCGAC: -0.328
ATCCGAAT: 0.137
TCGCAACA: -0.101
ATGTGCTA: 0.169
CCGGGTCA: -0.344
AAATCGAA: 0.105
AGGACTGG: -0.105
AGGTACGA: 0.131
CAAAGCCA: -0.0569
CCCTGTAG: -0.138
AACTTAGT: 0.0857
AGGGCATG: -0.0459
GGGGAGGA: -0.21
ATGGCTCG: -0.0846
CTCGAGTA: 0.00754
ACGACGCC: -0.238
AAATCAGA: 0.0832
CGTGCAGC: -0.23
AGGCACGC: -0.387
AACAGCAA: 0.124
GGGGCCCC: -0.393
AGTTGAAC: 0.00403

Other studies, line by line
PhoQ, residues 284 288 289 292 302 303 AGGCYF
fold induction (PhoP, residues 12 14 15 18 19 NNFVT (Escherichia coli, UniProt P23836); Sort-seq, refers to: YFP reporter; E. coli; PhoQ-PhoP variant library, added: 10 µM Mg2+; relative to: high Mg2+ state, higher = stronger signaling): 0.933

A few entries again (series 5):
GAACCGAC: -0.328
AACTTAGT: 0.0857
CAAAGCCA: -0.0569
GTATCAAA: 0.229
GGGGCCCC: -0.393
ACGACGCC: -0.238
AGGTACGA: 0.131
ATCCGAAT: 0.137
AACAGCAA: 0.124
ACACGTAT: 0.134
